Measured values from different studies.
Parts stem from different laboratories: compare values within a part only.

Sample 1
Target: RNA binding protein fox-1 homolog 2, RRM domain, GST-SBP tag (RBFOX2, Homo sapiens, UniProt O43251-10, residues 100-194)
Technique: RNA Bind-n-Seq
Molecule type: RNA
Sample: in vitro
Concentration: 365 nM
Setting: natural RNA segment, single round, ends assumed
Reference: no-protein control
Direction: higher = stronger binding
All sequences stand within: GGGAGUUCUACAGUCCGACGAUC … UGGAAUUCUCGGGUGCCAA
Target sequence (chain): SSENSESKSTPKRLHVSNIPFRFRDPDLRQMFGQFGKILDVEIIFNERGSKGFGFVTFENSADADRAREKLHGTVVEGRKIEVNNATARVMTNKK
Sequence	RBNS enrichment (R)
UCCCAAGGGCUGGCUGCUUCUGAGGACACAACUGGGACAUGGUUGAGUCAGUAGACUAUUUAGAGACUCAUGUAACUUGGGGUAUGGGCAUGCCUUUAUGGGAGCAGCCA	0.583
UGAAACCUCUUAUUACAUGCUCUUGUAUGUUUUUAAGCAUAAUAAGCUAACUGGAUUUGGGUAUAUGCCCUUUAAGUUAAAAAUAAUAUGUAUUUCUAAUUUGCAUAUUU	0.478
GGCAGGAGGCCUGGGUCUCACCAGCAGGAGUGCGUGCAAGGUGGGAGGGUCGGUCCAUUACAGACCCACAUCCUGGAGCACCCCCAUCUCCAUGUGUGAAGUAGCUUCCU	0.325
CAUAAUGAUGUGUCUGGCUCAAGCAGCAAUGCUGUCCCUGCUCAGAACUGUGGUCUCUGUGGAGAACCUAGUACAGAGCCUGAGCAAGGCAAUGGACCACCUCCUUUUCC	0.199
UUUUUUUUUUUUUUAAACAGGGAUGUCUGUUGAAAUAAAACAUUGAGUGUGACAGAUGCUGCCUACAGGUGUCUGGAUCUCAGAGUUGAGCUUGUGCAGAGGGCCCUGCC	0.41
GCACACAGAUCGCACCACAUGGCUUGUAAUGAUUUUCUGUGUCUGUCAUCGUCAGCGUGUCAUCUGGAUGUACGAAGGUAGUAAAAAAGGGUUUCAGAACAGAGCCACGG	0.662
UUCCGGGAGCUGGUGACAGCCUUGGGCCUUUCAGUCCCAAAGCGGCCGAUGGGAGUCUCCCUCCGACUCCAGAUAUGAACAGGGCCCAGGCCUGGAGCGUUUGCUGUGCC	0.63
UCAUUUUCCCCAGACACUACAUUUGGAUACAGGUGCCAAAGAACAUUAUUAAGGAAUUAUUUAGAAACAAUGUGUCUAGUUUAAGAAAGUGGUUUUCAGUAUUGUGACAA	0.506
UAGCAGCCCCUCCCUAAAGCAUUCUGAGGUAAGGAGGUAUCCAUUCUUCAAAUGAAUGUGAGUGAAGCAGCCCAAGGCUCUUCCUUAAUUCCUCUGGAGUGAUGCUGUGC	0.319
UCCUGUAAGGUUUGAAUGAGACAGAUGUACUCUGAAGGCUGGUGGUAAAUGUGUUUGAUGACCAGACUCUUCAUACAGUCGGCUUGGGCCACUUUAAAGGACAAAAGCCA	1.69
UGAAAGAGAUUCUUGACCUUAUUUCUAAACGUCUAGAGCUCUGAAAUGUCUUGAUGGAAGGUAUUAAACUAUUUGCCUGUUGUACAAAGAAAUGUUAAGACUCGUGAAAA	0.524
CACGGUCCUCGCUAGGGGCCCCAUGUCACCUGCAUCAGGACUAUUGGCACUCACUAGCUGCCCCUACAGCUUGCCUCUGGGCCUCAGAGAGGGGUGUUUCUGCCCGGGUU	5.59

Sample 2
Target: Histone acetyltransferase KAT6A, both winged helices, GST fusion (KAT6A, Homo sapiens, UniProt Q92794, residues 1-181)
Technique: protein binding microarray
Molecule type: double-stranded DNA, one strand shown
Sample: in vitro
Concentration: not given
Setting: 8-mer, flanks averaged, mean of 2 arrays, mostly near background
Reference: not given
Direction: higher = stronger binding
Construct (chain): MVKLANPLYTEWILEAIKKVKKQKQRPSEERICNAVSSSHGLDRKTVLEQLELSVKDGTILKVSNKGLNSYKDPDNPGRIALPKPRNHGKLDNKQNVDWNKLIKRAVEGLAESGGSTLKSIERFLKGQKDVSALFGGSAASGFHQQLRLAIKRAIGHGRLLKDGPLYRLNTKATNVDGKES
Sequence	E-score
CCTTGAGC	0.0238
CTGTGAAC	-0.00709
CGCACTGA	0.16
CGCGACGA	0.189
CAGAAGAC	-0.145
TCTCCAGA	-0.117
CATACTTA	-0.16
GCTCAGAA	-0.00167
ATTCGCCA	-0.0609
CTTATTTA	-0.105
AAATCGGG	-0.00522
GACCTTTA	-0.0423
CGTCACTC	-0.058

Sample 3
Target: Interferon regulatory factor 3, full length, phosphomimetic (IRF3, Homo sapiens, UniProt Q14653, residues 1-427, S386D/S396D/S398D/S402D/T404D/S405D)
Technique: protein-binding microarray
Molecule type: double-stranded DNA, one strand shown
Sample: in vitro
Concentration: 2540 nM top
Setting: 60-bp whole probe
Together with: salmon DNA 0.4 mg/ml
Reference: random background probes
Direction: higher = stronger binding
All sequences stand within: GCCTAGCAC … GTCTTGATTCGCTTGACGCTGCTG
Target sequence (chain): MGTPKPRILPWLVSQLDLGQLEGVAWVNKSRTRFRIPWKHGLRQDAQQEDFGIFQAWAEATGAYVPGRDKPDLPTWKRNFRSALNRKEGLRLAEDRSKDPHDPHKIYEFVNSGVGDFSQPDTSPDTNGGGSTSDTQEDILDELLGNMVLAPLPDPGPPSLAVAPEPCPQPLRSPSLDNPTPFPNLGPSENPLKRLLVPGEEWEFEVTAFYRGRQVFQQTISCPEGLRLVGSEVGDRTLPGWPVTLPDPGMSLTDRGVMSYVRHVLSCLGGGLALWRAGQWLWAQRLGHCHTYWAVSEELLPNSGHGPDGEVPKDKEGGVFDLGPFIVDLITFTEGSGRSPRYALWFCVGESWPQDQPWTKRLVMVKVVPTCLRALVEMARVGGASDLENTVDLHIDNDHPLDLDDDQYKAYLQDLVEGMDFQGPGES
Sequence	fitted relative affinity
CCTAGGGGCGGGGCCAAATGGTGCTAG	0.106 z-score
GACGGTATCGGTTTCTGGACGTGCTAG	5.84 z-score
TCATTTATGGTATTTTTACTGTGCTAG	1.08 z-score
GACGAACTGAGTCTCGAGACGTGCTAG	-0.311 z-score
TTAGGACTGGGGACCGGGTTAGTGCTA	-0.888 z-score
GACGATATCGGGAATCGAGACGTGCTA	0.209 z-score
TTAGATATCGGGTTGCGATTAGTGCTA	0.454 z-score
GACGGTCTCTGTTTCGGGACGTGCTAG	2.89 z-score
TCAATTGGTTGAACATGACTGTGCTAG	-0.0654 z-score
GACGGTCTCGGTTTTGGGACGTGCTAG	2.13 z-score
TTGGGACTGGACTATCGGTTAGTGCTA	-0.827 z-score
AGTGATAACTTTTTTTTTTCGTGCTAG	0.192 z-score
TTAAGACTGCTTTTCCTTTAGTGCTAG	0.916 z-score
GACGATATCGGGTTTCGAGTCGTGCTA	1.52 z-score
GACGGACTGGAGACTGGGGACGTGCTA	-0.753 z-score
TTAGGTCTCCTTATCCCTTAGTGCTAG	2.7 z-score
CTTTGTTTTTTTCTATATGCGTGCTAG	1.67 z-score
TCAGATATCGGGACTGGATTAGTGCTA	0.342 z-score
TTATATATCAGACTGGATTAGTGCTAG	0.605 z-score
TCATATATGCATGTAAAACTGTGCTAG	0.499 z-score
TTAGATTCCCTTTTCCTTTAGTGCTAG	7.56 z-score
GGAGAAAAATCATGAAAATAGTGCTAG	-0.582 z-score
TTCGCTTTCTTTAACTCATTGTGCTAG	1.96 z-score
TGATGTCTGGGTCTTGGTTCGTGCTAG	-0.991 z-score
GACGGTTTCCTAGTGCTGACGTGCTAG	5.1 z-score

Sample 4
Target: RING finger protein unkempt homolog, zinc fingers 1-6, GST-SBP tag (UNK, Homo sapiens, UniProt Q9C0B0, residues 30-357)
Chain of UniProt Q9C0B0 (30-357, looked up): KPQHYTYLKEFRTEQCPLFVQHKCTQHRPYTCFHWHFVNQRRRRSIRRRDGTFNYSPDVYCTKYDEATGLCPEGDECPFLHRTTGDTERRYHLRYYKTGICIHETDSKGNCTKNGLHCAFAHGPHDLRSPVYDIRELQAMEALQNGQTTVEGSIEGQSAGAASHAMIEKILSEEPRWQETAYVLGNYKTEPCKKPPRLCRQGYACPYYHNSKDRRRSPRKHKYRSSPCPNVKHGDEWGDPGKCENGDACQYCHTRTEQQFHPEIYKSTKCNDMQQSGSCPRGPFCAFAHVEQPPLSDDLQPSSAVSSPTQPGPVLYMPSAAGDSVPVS
Technique: RNA Bind-n-Seq
Molecule type: RNA
Sample: in vitro
Concentration: not given
Setting: RNA with constant flanks, ends assumed
Reference: input RNA pool
Direction: higher = stronger binding
All sequences stand within: GGGAGUUCUACAGUCCGACGAUC … CAACAGAGGAUUGAGCAUCA
Sequence	bound/input enrichment
AUUUGGUCAAGGCCAGAAAGCACCCAGGUACAGAACAUCCUGCGCCAGAGAACAGAGAAUACCGAUAUUAAAAAGUAUUGUGUGCAGUACCUGGAGGAUGUAGGUUCUUUUGCAUACACU	0.145 ratio
ACUACGCUGCGACAACGCAGAAAGCCAGUCUUCCACUUGUCCCAUGAGGAACGUGUCCAACACCGAAAUAUUAAAGACCUUAAACUGGCCUUCAGUGAGUUCUACCUCAGUCUAAUCCUG	0.115 ratio
CUCCUUUACUUCCCAGAGAACUUCACAGAGACUCUGUCCUUCCAUGCAAAGGCUUCCUGAAACCGGGAGACUGACUGAGUAGCUCAUUCUUGUGACUUACAGUGCCAACAUUUAAAAAAG	0.434 ratio
AUGGUGCAGAACGUGAGCUUCAAAUAUACGAAAGACGGGCCUUGCAUCUACAAUAAUCCCGAAUUUGGUAUUGAUCUUGACACACGAGUGGCUCUGGUAGGACCCAAUGGAGCAGGGAAG	0.456 ratio
UUUUCUUUUGGAGGCGGAUUGUUUGAUGAUAUGUUUGAAGACAUGGAGAAAAUGUUUUCUUUCCGUGGCUUUGAUACCACCAAUCGACACACAGUACAGACUGAAAAUAGAUUUCAUGGA	0.144 ratio
GGUGAUUAUAGCAAUCAGCAGAGUGGUUAUGGGAAAGUAUCCAGGCGAGGUGGACAUCAAAACCGCUACAAACCAUACUAAAUUAUUCCAUUUGCAACUUAUCCCCAACAGGUGGUGAAG	0.349 ratio
AUUGGUGGUGCUUCUAGUCGAGGUGAAAAUUCUUAUGGACUAGAAACUGUGUGUAAGGAUAUCCGGAAUUUACGAUUUGCUCAUAAACCUGAGGGGCGGACAAGAAGAUCCAUAUUUGAG	0.189 ratio
CCCACUGUCCCAUAUAUAUUCCUUUGUUGUUCUUGAGUGGACCAGGUUACACACUUAAACUCCGGGAGGUAAGACAAGAGUCCCAGUUAAAAUAUCUAUGUCCUAGAGAAGCAUCCACUU	0.659 ratio
GAGUUUAGUUAACUUAUAGUCAGCACAUAGUAGUAAGUAUGUUUAUCCCUGUGUUCUCUAACCCGGAAGUCUGGCUUUAAAGGUUUUUUAAAGUUUCCUCUAAUAUUUUGAUCAAAGGUC	2.9 ratio
GUUUUAUUACUUCUUGGAGAUGAAUCCAUGCAGAAGUUAUUUGAAGGAGGAAAAGGCCGUGUAUUUCAAAGGGUACUCUCUUGGAUCCCAUCAAAUAACCACCAGCUACAGCUUGCUGGA	0.147 ratio
CUUCUUUACCCCCCCAAUGUUGGUGAUUGAAGAUCCUCUCUUCAGUGGCGUGAAUAAUGACCGUUAACUUUCCAUUCAUACUUGGAACAAACCCCUUUGGUAAUGUCAAAGGCAGUACCU	0.327 ratio

A few entries again (sample 4):
Sequence	bound/input enrichment
AUUUGGUCAAGGCCAGAAAGCACCCAGGUACAGAACAUCCUGCGCCAGAGAACAGAGAAUACCGAUAUUAAAAAGUAUUGUGUGCAGUACCUGGAGGAUGUAGGUUCUUUUGCAUACACU	0.145 ratio
ACUACGCUGCGACAACGCAGAAAGCCAGUCUUCCACUUGUCCCAUGAGGAACGUGUCCAACACCGAAAUAUUAAAGACCUUAAACUGGCCUUCAGUGAGUUCUACCUCAGUCUAAUCCUG	0.115 ratio
CUCCUUUACUUCCCAGAGAACUUCACAGAGACUCUGUCCUUCCAUGCAAAGGCUUCCUGAAACCGGGAGACUGACUGAGUAGCUCAUUCUUGUGACUUACAGUGCCAACAUUUAAAAAAG	0.434 ratio
AUGGUGCAGAACGUGAGCUUCAAAUAUACGAAAGACGGGCCUUGCAUCUACAAUAAUCCCGAAUUUGGUAUUGAUCUUGACACACGAGUGGCUCUGGUAGGACCCAAUGGAGCAGGGAAG	0.456 ratio
UUUUCUUUUGGAGGCGGAUUGUUUGAUGAUAUGUUUGAAGACAUGGAGAAAAUGUUUUCUUUCCGUGGCUUUGAUACCACCAAUCGACACACAGUACAGACUGAAAAUAGAUUUCAUGGA	0.144 ratio
GGUGAUUAUAGCAAUCAGCAGAGUGGUUAUGGGAAAGUAUCCAGGCGAGGUGGACAUCAAAACCGCUACAAACCAUACUAAAUUAUUCCAUUUGCAACUUAUCCCCAACAGGUGGUGAAG	0.349 ratio
AUUGGUGGUGCUUCUAGUCGAGGUGAAAAUUCUUAUGGACUAGAAACUGUGUGUAAGGAUAUCCGGAAUUUACGAUUUGCUCAUAAACCUGAGGGGCGGACAAGAAGAUCCAUAUUUGAG	0.189 ratio
CCCACUGUCCCAUAUAUAUUCCUUUGUUGUUCUUGAGUGGACCAGGUUACACACUUAAACUCCGGGAGGUAAGACAAGAGUCCCAGUUAAAAUAUCUAUGUCCUAGAGAAGCAUCCACUU	0.659 ratio
GAGUUUAGUUAACUUAUAGUCAGCACAUAGUAGUAAGUAUGUUUAUCCCUGUGUUCUCUAACCCGGAAGUCUGGCUUUAAAGGUUUUUUAAAGUUUCCUCUAAUAUUUUGAUCAAAGGUC	2.9 ratio
